Measurements from different studies.
Every numbered part comes from another study and shows a few of its results, in no order.

Series 1
Target: PABPC1L2, full length, GST fusion (mouse, UniProt A0ABA7IW68)
Technique: RNAcompete
Form: RNA
Matrix: in vitro
Tested at: 20 nM
Setting: 7-mer, probes averaged, single round
Relative to: mean of 7-mers
Direction: higher = stronger binding
Construct (chain): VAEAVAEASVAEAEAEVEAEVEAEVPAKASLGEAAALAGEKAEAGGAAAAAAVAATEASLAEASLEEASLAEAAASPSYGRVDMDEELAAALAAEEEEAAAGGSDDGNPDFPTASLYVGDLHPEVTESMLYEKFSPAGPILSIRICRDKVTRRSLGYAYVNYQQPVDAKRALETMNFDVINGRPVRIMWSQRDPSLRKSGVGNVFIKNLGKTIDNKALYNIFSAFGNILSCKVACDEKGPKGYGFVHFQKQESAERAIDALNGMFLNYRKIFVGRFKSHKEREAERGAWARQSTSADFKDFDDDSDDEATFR
Oligonucleotide	7-mer Z-score
UUUCUAG	-0.358
GACGUUG	-0.208
ACGACCC	-0.215
CGUAAGC	-0.393
UUCAGCU	-0.277
GGCGCAA	0.186
CAGAGAA	0.334
UGCUGAG	-0.0772
UUCUACC	-0.197

Series 2
Target: Histone acetyltransferase KAT6A, winged helix 1, GST fusion (KAT6A, Homo sapiens, UniProt Q92794, residues 1-85)
Technique: protein binding microarray
Form: double-stranded DNA, one strand shown
Matrix: in vitro
Tested at: not given
Setting: 8-mer, flanks averaged, mean of 2 arrays, mostly near background
Relative to: not given
Direction: higher = stronger binding
Construct (chain): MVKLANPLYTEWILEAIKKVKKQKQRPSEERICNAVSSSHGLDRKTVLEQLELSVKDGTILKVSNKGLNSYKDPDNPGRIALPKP
Oligonucleotide	E-score
GCAGAGGC	0.013
GCAGTCAA	-0.063
ACGCAACA	0.0549
AGTCTTGG	-0.117
CTTCAGTA	0.0832

Series 3
Target: TAR DNA-binding protein 43, full length, His tag (TARDBP, Homo sapiens, UniProt Q13148, residues 1-414)
Technique: RNA Bind-n-Seq
Form: RNA
Matrix: in vitro
Tested at: 20 nM
Setting: 6-mer, flanks averaged, single round
With: 150 mM LiCl
Relative to: input library
Direction: higher = stronger binding
Oligonucleotide	6-mer enrichment (R)
CGUACA	0.829
AUAGCU	0.848
AGGAGG	1.16
UUGUUA	1.17
ACCGAG	0.902

Further values, each from its own experiment
Molecule	target	test	test system	setting	scale	measurement	value
PhoQ, residues 284 288 289 292 302 303 TYGVAM	PhoP, residues 12 14 15 18 19 LHSVQ (Escherichia coli, UniProt P23836)	Sort-seq, refers to: YFP reporter	E. coli	PhoQ-PhoP variant library, with: 10 µM Mg2+	relative to: high Mg2+ state, higher = stronger signaling	fold induction	14.7
